Results gathered from unrelated publications.
Lines come from different studies, so protocols differ. Values joined by “and” are separate records of one study, mostly repeats; a detail may differ. ± marks the error that the study gave.

The inhibition of `CCC(=CCc1c(O)cc2c(c1O)C(=O)CC(c1cccc(O)c1OC)O2)CC` (stereo not shown) is reported as 3.26% (HeLa; cell growth or viability, MTT; 3.125 µM, 48 h).
`Cc1ncsc1-c1ccc(C(C)NC(=O)C2CC(O)CN2C(=O)C(NC(=O)CCCCCCCCCCN2CCCC(Nc3ncc(Cl)c(Nc4ccccc4S(=O)(=O)C(C)C)n3)C2)C(C)(C)C)cc1` (stereo not shown) — result for “log2 fold change”: -2.71 (22Rv1; RNA-seq, item: ZNF66 mRNA; concentration not given; reference: DMSO).
`COC1CN([C@H]2CC[C@H]([C@@]3(C)Oc4c(Cl)cc(C(=O)NCc5c(SC)cc(C)[nH]c5=O)c(C)c4O3)CC2)C1` — result for “log2 fold change”: 3.33 (RNA-seq, item: DLC1; human, whole blood; dose not given, 24 h; reference: pretreatment baseline).
The inhibition of `COc1ccc(S(=O)(=O)NC23CCCC(C)(CCC4C2CC4(C)C)C3)cc1` (stereo not shown) is reported as 98.9% (HT-29; cell growth or viability, CCK-8; 50 µM).
The GI50 of `C=CS(=O)(=O)Oc1ccc(OC)c(-c2c[nH]c3ncc(-c4cncc(C(=O)N(C)C)c4)cc23)c1` is reported as greater than 1000 nM (BaF3; cell growth or viability).
For `CC(=O)N[C@@H](CC(=O)O)C(=O)N[C@@H](CC(C)C)C(=O)N[C@@H](C)C(=O)N[C@@H](CC(=O)O)C(=O)COC(=O)c1c(C)cccc1C`, the cell lysis was 88.5% (THP-1 cells, LPS-primed; pyroptosis, LDH release; 25 µM, LPS 1 µg/mL, 4 h, with: nigericin 5 µM, 2 h).
With `COc1ccccc1CNC[C@](O)(COCc1ccccc1)[C@@H]1CC[C@@H](C)C[C@H]1OCc1ccccc1` the inhibition was 90.2% (A2780; cell growth or viability, MTT; 30 µM, 72 h).
`CCc1c(-c2ccc3[nH]ncc3c2)cnc(N)c1-c1ccc(O)cc1` has a viability of 109% (CHP-212 resistant sublines, USP7 V517F heterozygous; 6.25 µM).
`N#C[C@@H]1CCCN1C(=O)CNC(=O)c1ccnc2ccc(OCCCN3CCN(C(=O)CCc4ccc5c(c4)CN4CCN(Cc6cc(CCC(=O)O)ccc6O)CC(=O)[O][Al-]([18F])([O]C(=O)C4)[O]5)CC3)cc12` (stereo partly shown) has an internalized fraction of 74.3 ± 1.9% (HT1080 cells expressing human FAP; 30 min, 37 °C).
`O=C(CC(F)(F)F)Nc1ccc([C@H]2[C@@H](F)[C@@H](F)C[C@@H](F)[C@H]2F)cc1` has a hepatic clearance of 8 mL/min/kg (liver microsome stability; cynomolgus liver microsomes; 1 µM).
`COC(=O)C1=C(C)Oc2ccc(Br)cc2C1C(C(C)=O)C(=O)OC` (stereo not shown): “mean lipid content” 0.716 OD492 (3T3-L1 mature adipocytes; lipolysis, Oil Red O staining; IC20).
For `Cc1ccc(S(=O)(=O)NC23CCCC(C)(CCC4C2CC4(C)C)C3)cc1` (stereo not shown), the inhibition was 94.6% (HT-29; cell growth or viability, CCK-8; 50 µM).
`CNS(=O)(=O)Nc1nccc(Cc2c(C)c3ccc(Oc4ncccc4F)cc3oc2=O)c1F` has an IC50 of greater than 1000 nM (MX-1; cell viability, CellTiter-Glo; 7 days).
For `Cc1cc2oc(=O)cc(Cn3ccnc3)c2cc1C`, “calcium mobilisation signal” read 0.54 ± 0.64 (COS-7 (untransfected); 500 µM, unit not given; reference: 3 µM ionomycin).
`CC(C)CC(=O)Nc1ccc(C2CCCCC2)cc1` gave a hepatic clearance of 69 mL/min/kg (hepatocyte stability; cryopreserved mouse hepatocytes; 1 µM).
For `CCN(CC)CC(=O)Nc1cccc(-n2cc(-c3ccc4ccc(-c5cn(-c6cccc(NC(=O)CN(CC)CC)c6)nn5)cc4c3)nn2)c1`, the fold regulation was 1.18 fold (RCC4; PCR angiogenesis array, item: TIE1; 5 x IC50, 6 h, normoxia; reference: untreated).
`O=S(=O)(Nc1ccc(OC(F)(F)F)cc1)N1CCCC(C2c3ccc(F)cc3CCc3cc(F)ccc32)C1` (stereo not shown) — result for protein level: “decreased” (D425; immunoblot, item: CIP2A; concentration not given).
`CCC(=CCc1c(O)cc2c(c1O)C(=O)CC(c1ccc(O)c(OC)c1)O2)CC` (stereo not shown) has an inhibition of 27% (HeLa; cell growth or viability, MTT; 6.25 µM, 48 h).
`COc1ccccc1-c1ccncc1C(=O)Nc1nnc(OCc2ccc(Cl)cc2)s1` gave a colony survival of 43.5% (MDA-MB-436 BRCA1-mutant; colony formation; 3 µM; reference: vehicle (DMSO)).
With `CC[C@H](NC(=O)[C@@H](NC(=O)[C@H](CC(=O)O)NC(C)=O)[C@@H](C)O)C(=O)N[C@@H](CC(=O)O)C(=O)COC(=O)c1c(C)cccc1C` the cell lysis was 76.4% and 72.5% (THP-1 cells, LPS-primed; pyroptosis, LDH release; 25 µM, LPS 1 µg/mL, 4 h, with: nigericin 5 µM, 2 h).
`COc1ccccc1C(=O)NCC(=O)Nc1ccc2[nH]nc(/C=C/c3ccccn3)c2c1` gave a GI50 of greater than 10000 nM (BaF3; cell growth or viability, CCK-8).
`CN1CCCNC(=O)c2cccc(c2)C(=O)NCCCN(C)CCCNc2cccc3c2C(=O)c2cccc(c2C3=O)NCCC1` — result for “log2 fold change”: 0.768 (SAS; RNA-Seq, item: SLF2 mRNA; 1 µM, 6 h; reference: untreated cells).
